Results collected from several papers.
Parts stem from different laboratories: compare values within a part only.
UniProt P9WI81, sequence (whole entry, looked up): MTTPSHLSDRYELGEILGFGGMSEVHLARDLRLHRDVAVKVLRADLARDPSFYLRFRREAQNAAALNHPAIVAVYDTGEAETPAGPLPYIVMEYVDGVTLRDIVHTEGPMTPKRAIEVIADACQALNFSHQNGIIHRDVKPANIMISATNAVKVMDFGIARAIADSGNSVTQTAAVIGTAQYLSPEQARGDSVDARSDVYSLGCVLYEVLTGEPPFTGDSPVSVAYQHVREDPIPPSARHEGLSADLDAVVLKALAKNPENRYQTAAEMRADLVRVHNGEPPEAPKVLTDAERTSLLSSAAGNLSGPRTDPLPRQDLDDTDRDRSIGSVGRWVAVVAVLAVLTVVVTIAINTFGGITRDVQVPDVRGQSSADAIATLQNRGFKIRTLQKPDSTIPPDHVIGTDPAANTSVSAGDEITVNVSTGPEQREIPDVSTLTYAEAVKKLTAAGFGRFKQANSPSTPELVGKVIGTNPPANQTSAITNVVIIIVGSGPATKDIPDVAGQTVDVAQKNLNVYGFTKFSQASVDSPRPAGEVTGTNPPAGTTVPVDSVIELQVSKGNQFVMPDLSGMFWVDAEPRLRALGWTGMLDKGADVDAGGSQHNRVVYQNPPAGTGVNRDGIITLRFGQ
UniProt P61075, sequence (whole entry, looked up): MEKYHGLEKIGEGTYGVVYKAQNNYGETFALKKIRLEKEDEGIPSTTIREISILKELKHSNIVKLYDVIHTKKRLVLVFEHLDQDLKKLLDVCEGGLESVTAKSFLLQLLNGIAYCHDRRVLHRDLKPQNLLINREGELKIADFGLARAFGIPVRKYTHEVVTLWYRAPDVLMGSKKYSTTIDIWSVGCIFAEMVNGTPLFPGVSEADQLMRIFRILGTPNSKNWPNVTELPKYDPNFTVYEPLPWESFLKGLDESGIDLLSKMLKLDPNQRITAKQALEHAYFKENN

Sample 1 — cell line: HEK-293T-ACE2; tested at: concentration not given; relative to: vehicle
SMILES	cell number [%]
CC(C)C[C@H](NC(=O)[C@H](Cc1ccccc1)NC(=O)c1cnccn1)B(O)O	69.2
Nc1cccc2c1CN(C1CCC(=O)NC1=O)C2=O (stereo not drawn)	97.5
[I-].[K+]	103
Cl.Cn1c(CCCC(=O)O)nc2cc(N(CCCl)CCCl)ccc21	99
CC(=O)NO	102
Cl.N=C(N)NN	101
Cl.N=C(N)N	99.8
C[C@]12CC[C@@H]3c4ccc(O)cc4CC[C@H]3[C@@H]1CC[C@@H]2OC(=O)CCC1CCCC1	103
CN(C)CCc1c[nH]c2ccc(CS(=O)(=O)N3CCCC3)cc12.O=C(O)CC(O)C(=O)O	96.4

Sample 2 — mode: degrader; technique: HiBiT; cell line: HEK293; tested at: 3333.33 nM
Target: CRBN/Zinc finger protein Helios (Homo sapiens, UniProt Q96SW2+Q9UKS7)
UniProt Q9UKS7, sequence (whole entry, looked up): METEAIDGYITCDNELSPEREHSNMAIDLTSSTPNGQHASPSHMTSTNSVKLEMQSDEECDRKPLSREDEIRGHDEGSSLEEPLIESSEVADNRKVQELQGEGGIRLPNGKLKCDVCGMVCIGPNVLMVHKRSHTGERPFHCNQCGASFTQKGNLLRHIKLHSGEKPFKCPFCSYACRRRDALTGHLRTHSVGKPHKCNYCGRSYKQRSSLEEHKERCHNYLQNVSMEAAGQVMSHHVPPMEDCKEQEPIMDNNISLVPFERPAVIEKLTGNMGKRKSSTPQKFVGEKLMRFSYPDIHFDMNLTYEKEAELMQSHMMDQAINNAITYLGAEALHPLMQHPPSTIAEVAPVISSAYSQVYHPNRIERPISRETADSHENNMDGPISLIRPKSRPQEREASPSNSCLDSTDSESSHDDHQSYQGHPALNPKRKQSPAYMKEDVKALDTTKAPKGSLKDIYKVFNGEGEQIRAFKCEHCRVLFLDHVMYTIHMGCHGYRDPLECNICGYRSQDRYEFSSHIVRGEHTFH
UniProt Q96SW2, sequence (whole entry, looked up): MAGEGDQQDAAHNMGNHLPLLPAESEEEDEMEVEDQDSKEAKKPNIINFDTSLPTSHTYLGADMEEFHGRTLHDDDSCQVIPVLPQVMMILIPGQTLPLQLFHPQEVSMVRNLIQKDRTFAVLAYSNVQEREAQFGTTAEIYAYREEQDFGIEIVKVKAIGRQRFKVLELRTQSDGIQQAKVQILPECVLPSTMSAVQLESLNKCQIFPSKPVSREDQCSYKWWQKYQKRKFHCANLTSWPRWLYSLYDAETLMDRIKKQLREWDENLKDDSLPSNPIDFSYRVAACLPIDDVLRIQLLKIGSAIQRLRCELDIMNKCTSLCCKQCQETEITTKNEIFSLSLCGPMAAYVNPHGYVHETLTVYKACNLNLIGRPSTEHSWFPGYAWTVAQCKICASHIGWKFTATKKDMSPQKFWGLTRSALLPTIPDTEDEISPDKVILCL
SMILES	protein remaining [%]
O=C1CCC(N2Cc3c(ccc4c3OCC43CCN(Cc4ccccc4)CC3(F)F)C2=O)C(=O)N1 (stereo not drawn)	32.3
O=C1CCC(N2Cc3c(ccc4c3OCC43CCN(CC4CCCCC4)CC3)C2=O)C(=O)N1 (stereo not drawn)	41.4
O=C1CCC(N2Cc3c(ccc4c3OCC43CCN(Cc4ccccc4)C3)C2=O)C(=O)N1 (stereo not drawn)	67.4
O=C1CCC(N2Cc3c(ccc4c3OCC43CCCN(Cc4ccccc4)CC3)C2=O)C(=O)N1 (stereo not drawn)	94.8
O=C1CCC(N2Cc3c(ccc4c3OCC43CCN(Cc4ccccn4)CC3)C2=O)C(=O)N1 (stereo not drawn)	48
O=C1CCC(N2Cc3c(ccc4c3OCC43CCN(Cc4ccsc4)CC3)C2=O)C(=O)N1 (stereo not drawn)	25.1

Single results of other studies
Compound	tested on	assay	system	setting	quantity	value
CC1=C(C#N)C(c2ccc3c(c2)c(NC(=O)c2ccccc2C)nn3C)C(C#N)=C(C)N1	Cyclin-dependent kinase 2 homolog (CRK2, Plasmodium falciparum, UniProt P61075)	cell-free assay, competition with immobilised ligand		1 µM	remaining binding	84%
COc1ccc(-c2c(Nc3ccccn3)[nH]c3c(C4=CCCCC4)c(-c4ccccc4)nn3c2=O)cc1			patients with advanced malignancies	oral, dose not given, treatment-emergent adverse events	ALT increased incidence	10%
COc1ccc2c(O[C@@H]3C[C@H]4C(=O)N[C@]5(C(=O)O)CC5/C=C\CCCCC[C@H](NC(=O)OC5CCCC5)C(=O)N4C3)cc(-c3csc(NC(=O)C(C)C)n3)nc2c1C (stereo partly drawn)	Serine/threonine-protein kinase PknB (pknB, Mycobacterium tuberculosis, UniProt P9WI81)	cell-free assay, competition with immobilised ligand		1 µM	remaining binding	94%

Excerpt of the above (sample 2):
SMILES	protein remaining [%]
O=C1CCC(N2Cc3c(ccc4c3OCC43CCN(Cc4ccsc4)CC3)C2=O)C(=O)N1 (stereo not drawn)	25.1
O=C1CCC(N2Cc3c(ccc4c3OCC43CCN(CC4CCCCC4)CC3)C2=O)C(=O)N1 (stereo not drawn)	41.4
O=C1CCC(N2Cc3c(ccc4c3OCC43CCN(Cc4ccccn4)CC3)C2=O)C(=O)N1 (stereo not drawn)	48
